Experimental data pooled from the literature.
Parts stem from different laboratories: compare values within a part only.

Series 1
Target: Prothrombin, mature alpha-thrombin (F2, Homo sapiens, UniProt P00734)
Technique: aptamer microarray, sandwich
Form: DNA with 2'F-ANA
Medium: in vitro
Concentration: 200 nM
Setting: whole 15-mer aptamer, many near background
Added: Cy3 exosite-II aptamer, 400 nM
Reading: higher = stronger binding
Under “mean fluorescence intensity”, `GGTTGGTGTGGTTGG (2'F-ANA at 4 7 8 11 12 13 14 15)` is recorded as 118 a.u.
`GGTTGGTGTGGTTGG (2'F-ANA at 1 4 5 8 12 13 15)` — result for “mean fluorescence intensity”: 112 a.u.
`GGTTGGTGTGGTTGG (2'F-ANA at 1 4 6 7 12 13 14)` — result for “mean fluorescence intensity”: 157 a.u.

Series 2
Target: Centromere-binding protein 1, full length, His-tagged (CBF1, Saccharomyces cerevisiae, UniProt P17106, residues 1-351)
Sequence of UniProt P17106 (whole entry, looked up): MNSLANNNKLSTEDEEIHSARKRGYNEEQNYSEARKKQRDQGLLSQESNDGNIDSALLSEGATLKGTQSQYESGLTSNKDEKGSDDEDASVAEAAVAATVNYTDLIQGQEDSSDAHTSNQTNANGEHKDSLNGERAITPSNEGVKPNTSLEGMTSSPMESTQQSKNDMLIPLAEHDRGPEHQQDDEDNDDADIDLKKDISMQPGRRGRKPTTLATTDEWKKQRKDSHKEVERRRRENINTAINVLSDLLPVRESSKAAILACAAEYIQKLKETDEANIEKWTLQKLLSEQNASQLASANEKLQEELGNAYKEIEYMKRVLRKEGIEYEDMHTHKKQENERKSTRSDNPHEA
Technique: competition protein-binding microarray
Form: double-stranded DNA, one strand shown
Medium: in vitro
Concentration: 2 µM
Setting: whole 60-bp probe, lowest competitor level
Added: Pho4 competitor, 0.05 µM
Reading: higher = stronger binding
With `TATCGTCATATAAAAAACGTGCAAAGTATATGTAACGTCTTGATTCGCTTGACGCTGCTG` the fluorescence intensity was 354 a.u.
`CGCTTTCTAAGGAGCCACGTGTAGGGGGAGCTGGTGGTCTTGATTCGCTTGACGCTGCTG` gave a fluorescence intensity of 730 a.u.
The fluorescence intensity of `TCGTCTGGGTTGGGACCGATGATAATAACGTAGTTAGTCTTGATTCGCTTGACGCTGCTG` is reported as 56.7 a.u.

Series 3
Target: Histone acetyltransferase KAT6A, winged helix 2, GST fusion (KAT6A, Homo sapiens, UniProt Q92794, residues 85-181)
Technique: protein binding microarray
Form: double-stranded DNA, one strand shown
Medium: in vitro
Concentration: not given
Setting: 8-mer, flanks averaged, mean of 2 arrays, mostly near background
Reference: not given
Reading: higher = stronger binding
Residues (chain): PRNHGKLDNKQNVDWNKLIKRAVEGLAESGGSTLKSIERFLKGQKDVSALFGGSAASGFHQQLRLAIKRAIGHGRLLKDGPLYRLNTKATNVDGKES
`AGGCTAAT` gave an E-score of 0.112.
With `CGCACGTA` the E-score was -0.198.
The E-score of `CACACAGG` is reported as -0.0112.

Other studies, line by line
With `PhoQ, residues 284 288 289 292 302 303 QWQEDG` the fold induction was 6.57 (PhoP, residues 12 14 15 18 19 LWHVM (Escherichia coli, UniProt P23836); Sort-seq, measured: YFP reporter; E. coli; PhoQ-PhoP variant library, added: 10 µM Mg2+; reference: high Mg2+ state, higher = stronger signaling).
